Measured values of several laboratories.
Parts stem from different laboratories: compare values within a part only. Substitutions count along the parent as printed.

Block 1
Target: CCNB3, cyclin fold, Cln2 fusion (human)
Technique: yeast growth competition, sequencing
Medium: yeast
Notes: weak parent motif
Relative to: not given
Reading: higher = stronger binding
Parent: KIF20B docking peptide (human); KRAKRKLYTSEIS; partner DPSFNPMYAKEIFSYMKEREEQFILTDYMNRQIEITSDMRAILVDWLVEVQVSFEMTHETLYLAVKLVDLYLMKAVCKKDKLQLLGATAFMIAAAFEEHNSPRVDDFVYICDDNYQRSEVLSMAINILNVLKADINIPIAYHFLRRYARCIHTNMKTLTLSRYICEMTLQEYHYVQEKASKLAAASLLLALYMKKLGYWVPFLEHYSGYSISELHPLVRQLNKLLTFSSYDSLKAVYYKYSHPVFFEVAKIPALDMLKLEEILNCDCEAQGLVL
Under “normalised enrichment score”, `S10A` is recorded as -0.31.
For `S13A`, “normalised enrichment score” read 0.0602.
For `E11A`, “normalised enrichment score” read 0.284.
For `T9A`, “normalised enrichment score” read -0.0393.
`I12A` — result for “normalised enrichment score”: 0.36.
`R2A`: “normalised enrichment score” -0.0221.

Block 2
Target: Interferon regulatory factor 3, full length, phosphomimetic (IRF3, Homo sapiens, UniProt Q14653, residues 1-427, S386D/S396D/S398D/S402D/T404D/S405D)
Technique: protein-binding microarray
Form: double-stranded DNA, one strand shown
Medium: in vitro
Concentration: 2540 nM top
Notes: 60-bp whole probe
Together with: salmon DNA 0.4 mg/ml
Relative to: random background probes
Reading: higher = stronger binding
Shared flanks, not repeated: GCCTAGCAC … GTCTTGATTCGCTTGACGCTGCTG
Construct (chain): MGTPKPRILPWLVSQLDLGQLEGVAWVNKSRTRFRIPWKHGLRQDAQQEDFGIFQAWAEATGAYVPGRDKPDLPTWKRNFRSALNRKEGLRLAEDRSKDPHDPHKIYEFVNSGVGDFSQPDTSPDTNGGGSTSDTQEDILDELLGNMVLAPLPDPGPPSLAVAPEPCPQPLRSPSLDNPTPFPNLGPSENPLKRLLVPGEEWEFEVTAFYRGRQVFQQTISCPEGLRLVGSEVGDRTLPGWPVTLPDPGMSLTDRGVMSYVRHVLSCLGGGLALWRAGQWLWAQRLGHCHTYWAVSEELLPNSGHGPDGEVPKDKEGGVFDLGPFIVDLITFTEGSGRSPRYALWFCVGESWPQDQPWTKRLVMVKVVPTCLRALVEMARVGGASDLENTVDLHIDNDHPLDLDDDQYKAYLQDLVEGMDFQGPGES
For `TCATTTCCCAGAACTGGAACTGTGCTA`, “fitted relative affinity” read 1.97 z-score.
Under “fitted relative affinity”, `GTATATACACTTATGACTTTGTGCTAG` is recorded as 0.355 z-score.
`TTCTTGCGGAGTTTCTTGCAGTGCTAG`: “fitted relative affinity” 0.593 z-score.
`GACGAACAGAGTTTCGAGACGTGCTAG`: “fitted relative affinity” 1.23 z-score.
Under “fitted relative affinity”, `GTCGGACTGGACTATCGGGACGTGCTA` is recorded as -0.279 z-score.
Under “fitted relative affinity”, `TTAGGTTTCCGTTCCCTTTAGTGCTAG` is recorded as 8.42 z-score.
Under “fitted relative affinity”, `TGAGGTATCGGGTATCGGTTAGTGCTA` is recorded as 1.59 z-score.
For `TCACAAGTCTTGTTTTACACTGTGCTA`, “fitted relative affinity” read 0.25 z-score.
`TTAGAGCTGGGGTATCGATTAGTGCTA` — result for “fitted relative affinity”: -0.779 z-score.
Under “fitted relative affinity”, `GACGGTATCGGGACTGGGGAAGTGCTA` is recorded as 1.83 z-score.
Under “fitted relative affinity”, `TCATCTCTGCTCCTTCTGACTGTGCTA` is recorded as 0.987 z-score.
`TCAATCCCCAGTCTCATACTGTGCTAG` — result for “fitted relative affinity”: 0.49 z-score.
`TTGATTGTGGCTTTTTAATGGTGCTAG` — result for “fitted relative affinity”: -0.615 z-score.
`TTAGGTCTCGGTATCGGTTCGTGCTAG` — result for “fitted relative affinity”: 3.14 z-score.
`TTAGTTCTCAGACTGGATTAGTGCTAG`: “fitted relative affinity” 0.82 z-score.
`GACGGTACCGGGTTTCGGGACGTGCTA`: “fitted relative affinity” 1.52 z-score.
`TCATTTCTTTTTTTCTTACTGTGCTAG`: “fitted relative affinity” 3.33 z-score.
Under “fitted relative affinity”, `TTAGATTTCGGGCCTGGATTAGTGCTA` is recorded as 0.223 z-score.
For `CTAGAACTGAGTCTCGATTAGTGCTAG`, “fitted relative affinity” read -0.29 z-score.

Block 3
Target: RING finger protein unkempt homolog, zinc fingers 1-6, GST-SBP tag (UNK, Homo sapiens, UniProt Q9C0B0, residues 30-357)
Sequence of UniProt Q9C0B0 (30-357, looked up): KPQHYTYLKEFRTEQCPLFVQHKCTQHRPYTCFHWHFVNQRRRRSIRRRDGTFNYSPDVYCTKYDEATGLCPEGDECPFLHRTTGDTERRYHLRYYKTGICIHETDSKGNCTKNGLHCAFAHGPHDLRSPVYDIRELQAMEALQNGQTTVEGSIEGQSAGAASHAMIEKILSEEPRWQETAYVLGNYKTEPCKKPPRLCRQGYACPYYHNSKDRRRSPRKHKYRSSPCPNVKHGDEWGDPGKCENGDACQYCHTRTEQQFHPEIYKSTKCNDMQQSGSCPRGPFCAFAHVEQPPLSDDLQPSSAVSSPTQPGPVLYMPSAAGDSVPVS
Technique: RNA Bind-n-Seq
Form: RNA
Medium: in vitro
Concentration: not given
Notes: RNA with constant flanks, ends assumed
Relative to: input RNA pool
Reading: higher = stronger binding
Shared flanks, not repeated: GGGAGUUCUACAGUCCGACGAUC … CAACAGAGGAUUGAGCAUCA
With `CCUCUUGUGGGCAAGGACAGUUUUAAUGUUGAUCCCAGCAGUGUGUGUCUUUAUUUCCUCACCCGAGCCGGAAAAAGCCCAGUGUAUUCCUCAUGAAUGCUCUCUAAACCUGUGAAGAGC` the bound/input enrichment was 0.105 ratio.
`UACCACCAUGUACCCAGGCAUUGCUGACAGGAUGCAGAAGGAGAUUACUGCUCUGGCUCCCCGCACCAUGAAGAUCAAGAUCAUUGCUCCUCCUGAGCGCAAGUACUCUGUGUGGAUCGA` gave a bound/input enrichment of 0.101 ratio.
`GCCCAGGGUCGCCAUGUAGAAGUUUUUGAGCUCCUCAAACCUCCAUCUGGAGGCCUUGGGUUCCGUGUUGUGGGACUAAGAAGUGAAAACAGAGGAGAGCUGGGAAUAUUUGUUCAAGAG` gave a bound/input enrichment of 0.155 ratio.
For `UGUGUGCGUGCCCGAGUGUGCGCGCGCGGGUGUGUGGACUCGGAGGUGGGGGCAGCCGAGUCCGUCCCAAGUCGUCGGACUCCAUUUGCUAUUCUUUUCUUUCUCUCCCACACCCGUGUG`, the bound/input enrichment was 0.333 ratio.
The bound/input enrichment of `UUUGAAAGAAAAAUACCAUGUCUCUAAGCCAACUUUAAUUGCUUAAAAGACAUUUUUAUUCCGUUGAAAAAUCUAGUUUUUUUUGUAAACUGUAUCAAAUCUGUAUAUGUUGUAAUAAAA` is reported as 6.32 ratio.
The bound/input enrichment of `CUCUUAAAAGACUAUGAAGAUAAAAUUCGGGAGGAGUAUGAGCAAAUCCUCAAUACCAAACCCGCAGAACAAUAUGAAUCUUUUGUGAAAUUCACACAUGAUCAGAUUAUGCGACGGUAU` is reported as 0.194 ratio.
With `CUUCGGGUUUCUGAGACUGUGGCAUUCACUGACGUGAAUUCAAUCCUGCGCUACCUGGCCCGAAUUGCAACUACGUCUGGGCUGUAUGGGACUAACCUGAUGGAGCACACUGAGAUUGAU` the bound/input enrichment was 0.201 ratio.
`GAAUCUGUACUUGUAGAGUGGCGCGAUGCAACAGAGAAGAAUAAGGAGUUUCUCCCGCGUUCCGGAGCUACUAUUGAACAUAUCUCAGUCUCGCCUGCAGGAGAUUUAUUCUGCACUUCU` has a bound/input enrichment of 0.18 ratio.
For `GUCCAGCGUAAGAGGGAGCUGUGGCCAAGAGAGAAGGAGGGUCAGCGCCAGGAGCCCGAAGAAUUUAAGCAGAAGAUCCGGAAGCAGAAAGAAGAGAGACUUCUUCAAGCUGCCCAGCAG`, the bound/input enrichment was 0.176 ratio.
`UUUCUUUUUUUUUCCCCUUUCUUCUUCCUCCCUCCCAAUUCCAACACCUCCAACCCCCAAACCCGGCUGGCCUCGAACUCACUAUUGUAGAAAGAUGUCCUUGAAGUCUCAAUCCUCCUG` has a bound/input enrichment of 1.92 ratio.
`GCUUUCAGCCCGUGUAAAUAUUUAAAUAAAACAGUAUUAACAUUUUUGUGCUGCUUCUCGUCCGGUUGUAGAUCUAGCCAUGCUCUGGCCGCCUCUGCCAUCCUGGAGGUAGUUUUCCUU` gave a bound/input enrichment of 0.142 ratio.

Block 4
Target: RNA binding protein fox-1 homolog 2, RRM domain, GST-SBP tag (RBFOX2, Homo sapiens, UniProt O43251-10, residues 100-194)
Technique: RNA Bind-n-Seq
Form: RNA
Medium: in vitro
Concentration: 365 nM
Notes: natural RNA segment, single round, ends assumed
Relative to: no-protein control
Reading: higher = stronger binding
Shared flanks, not repeated: GGGAGUUCUACAGUCCGACGAUC … UGGAAUUCUCGGGUGCCAA
Target sequence (chain): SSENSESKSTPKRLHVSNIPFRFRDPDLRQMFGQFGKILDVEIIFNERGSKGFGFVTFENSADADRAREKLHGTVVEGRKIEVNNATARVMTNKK
`GCUUGGAAAAUAGCUAUAUUCAACAAAAAUCUUCAAAGACUGGUUUCUUUUUUAAAAGAAAAAACUUGAAAGAACACUUCUAAGCCUAAGUGUGUGAUACAGUUUGUUAC`: “RBNS enrichment (R)” 0.559.
Under “RBNS enrichment (R)”, `ACAAGCGAGUCCCUCCAGCUGCUUUAGGAGCCGCUGUGUUCCUGCUGUGUCUUACAGGACUGGAGUGCUGGAUUCGGAGUUAAACGCAUCAAUAUGUAAAAUUGUUGUUU` is recorded as 0.298.
`AGUUGCUAUGCACCAAAUUUUGAUGCCUUCUAAAUACCUUGAUGCCUGUAGCACUAGAAAUGCUUUCCUAUUUAAAAUAAACAUUAAAUUUUAAAAUAGAGCUUUGUAUA`: “RBNS enrichment (R)” 0.759.
`CUUUGGAAAAGUACCGUAUGUUCCUAGACCCCUUCCUUCCUUCCUUCCUUCCUUCCUUCUUUCCUUCCUUCCUUCCUUCCUUCCUUCCUUCCUUCCUUCCUUCCCUCUCC`: “RBNS enrichment (R)” 1.92.
Under “RBNS enrichment (R)”, `AGGAGACCAGUCAUGAGUACCAAGGAAUUUGUCAGCUUGGUUCUAGAACUUAGCAGAGGUUGAGCUCUGCUGCACAUUGGCAGACCAGGUCAGGAUGUCUGCAGUUGGAG` is recorded as 0.851.
For `GAGAGCGCAGACCUAUUUCUAGCCACUCCUGUUGACAGUGCGCCUGAAGGGCCGGGCGUGCCUCUCUUGGUGUUGCAUGCUCGUGACACUCAAGAAAUUUUGAACUGAUG`, “RBNS enrichment (R)” read 4.65.
Under “RBNS enrichment (R)”, `UCAGAUAUGUCCAGAGCAAAUUAGUCAUCCCCCGGUUGUGUUCAUAUUAACCACAAUCAUCUCUAGAGGAAAGAGUAUUACAACCCAGGCAUGAUCCUCUAUGGACACUA` is recorded as 1.94.
`GGAGGCUCAGAUGAGAUGCUAUAUGUGAAAACAUUCUGUAAGCUUCGUACAAAUGUGAAGUAUUAAUAUUAUCGCAGUAUUAUUGUUGUUAUUAUUAUUGUUAUUAUUAA` — result for “RBNS enrichment (R)”: 0.677.
Under “RBNS enrichment (R)”, `ACCUACUAAGCAGAGCAAGGCCUGGGUAUCAAACAGUUCUGUGUUAACAGUUCCUAAAUUCUAAGGUCCUUGAAUUUGAAGGAAAGACCUUUAGGCCAACUCUGUCUUGG` is recorded as 0.381.
`UCACAUGUUCUGAGUAUGGAACCUCAUCUGUGUUGCUUUUUCUUUCUCUGUGUCCUCACUGUGGGGCUGAGGUCUCAGGGGCUCCCCUCUGCUAAGGUUCCUUCCCUUUG`: “RBNS enrichment (R)” 0.405.
`GUUGCAGUGAGCCAAGAUGGCGCCAUUGCACUCCAGCCUGGGCGACAAGAGCAAAACUCCGUCUCAAAAAAAAAAAAAAGAUACAAAGUCUGCAUUUGAUAUAAUGCCUU` — result for “RBNS enrichment (R)”: 0.603.
For `UAACAAAAGCCGCGACAGCCACCAGGCAGGCUUUUCCUUAUACAUGACAGAAGUUCGUAUUACGCCUUGGAAGGUCUAGGUGGAGAUCACCACCAGCAUUCUCUGCCUGU`, “RBNS enrichment (R)” read 0.43.

Some of these lines once more (block 4):
`GUUGCAGUGAGCCAAGAUGGCGCCAUUGCACUCCAGCCUGGGCGACAAGAGCAAAACUCCGUCUCAAAAAAAAAAAAAAGAUACAAAGUCUGCAUUUGAUAUAAUGCCUU` — result for “RBNS enrichment (R)”: 0.603.
`AGUUGCUAUGCACCAAAUUUUGAUGCCUUCUAAAUACCUUGAUGCCUGUAGCACUAGAAAUGCUUUCCUAUUUAAAAUAAACAUUAAAUUUUAAAAUAGAGCUUUGUAUA`: “RBNS enrichment (R)” 0.759.
Under “RBNS enrichment (R)”, `ACAAGCGAGUCCCUCCAGCUGCUUUAGGAGCCGCUGUGUUCCUGCUGUGUCUUACAGGACUGGAGUGCUGGAUUCGGAGUUAAACGCAUCAAUAUGUAAAAUUGUUGUUU` is recorded as 0.298.
